# Published values gathered from unrelated publications.
# Numbered parts are unrelated; each lists some results of a single study. Substitutions count along the parent as printed.
# Chain of UniProt Q13131 (whole entry, looked up): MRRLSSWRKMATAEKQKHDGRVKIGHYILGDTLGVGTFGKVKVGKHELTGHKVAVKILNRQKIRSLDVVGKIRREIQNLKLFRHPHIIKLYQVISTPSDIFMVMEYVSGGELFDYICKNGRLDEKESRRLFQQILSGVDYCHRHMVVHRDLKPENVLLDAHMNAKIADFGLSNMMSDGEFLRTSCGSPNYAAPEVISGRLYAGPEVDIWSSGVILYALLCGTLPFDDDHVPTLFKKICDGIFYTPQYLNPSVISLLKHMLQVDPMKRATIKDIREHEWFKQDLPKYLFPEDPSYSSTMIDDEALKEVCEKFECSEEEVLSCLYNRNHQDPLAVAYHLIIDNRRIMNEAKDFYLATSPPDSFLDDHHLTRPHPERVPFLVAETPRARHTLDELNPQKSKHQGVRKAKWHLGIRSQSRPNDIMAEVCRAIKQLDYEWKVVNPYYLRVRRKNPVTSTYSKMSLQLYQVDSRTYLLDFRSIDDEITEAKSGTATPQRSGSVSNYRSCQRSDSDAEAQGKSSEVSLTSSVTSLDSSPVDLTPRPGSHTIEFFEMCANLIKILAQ

# Set 1 — target: CCNA1, cyclin fold, Cln2 fusion (human); technique: yeast growth competition, sequencing; medium: yeast; notes: weak parent motif; reference: not given; direction: higher = stronger binding
# Starting sequence: MASTL docking peptide (human); PMIAKNLMCELDE
Variant,normalised enrichment score
M2N,-0.0314
C9G,0.0505
N6F,-0.193
M8E,0.196
I3E,0.164
N6S,0.168
M2P,0.123
L11H,0.136

# Set 2 — target: JUN, bZIP domain (human); technique: DHFR protein complementation; medium: yeast; reference: wild-type JUN-FOS pair; direction: higher = stronger binding
# Notes: single substitutions, most at no-binding floor
# Starting sequence: JUN, bZIP domain (human); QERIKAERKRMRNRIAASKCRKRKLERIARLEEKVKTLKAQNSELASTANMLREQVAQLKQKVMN
Variant,binding fitness [natural log]
L31R,-1.35
V35Q,-1.26
L52G,-1.34
V35H,-1.22
L31G,-1.32
V35N,-1.45
A49D,-1.26
L52T,-1.33

# Set 3 — technique: aptamer microarray, sandwich; form: DNA with 2'F-ANA; medium: in vitro; tested at: 200 nM; added: Cy3 exosite-II aptamer, 400 nM; direction: higher = stronger binding; oligonucleotide: GGTTGGTGTGGTTGG
# Target: Prothrombin, mature alpha-thrombin (F2, Homo sapiens, UniProt P00734)
# Notes: whole 15-mer aptamer, many near background
Modification,mean fluorescence intensity [a.u.]
2'F-ANA at 1 2 3 6 7 9 13,119
2'F-ANA at 1 2 3 4 6,158
2'F-ANA at 2 3 4 8 13,581
2'F-ANA at 1 5 8 9 10 11 12 13 14 15,48.2
2'F-ANA at 1 2 5 11 12 14 15,49.9
2'F-ANA at 3 4 5 7 8 9 11 14,54.3
2'F-ANA at 2 5 6 7 8 10 11 14,47.1
2'F-ANA at 1 2 5 13 14,56.3

# Single results of other studies
SMILES,target,test,conditions,quantity,value
C[C@H](c1ccnc(Nc2nc3ccc(-c4cc(N(C)C)ncn4)cc3[nH]2)c1)N1CCN(C(=O)CC(F)(F)F)CC1,"5'-AMP-activated protein kinase catalytic subunit alpha-1 (PRKAA1, Homo sapiens, UniProt Q13131)","cell-free assay, competition with immobilised ligand",0.1 µM,remaining binding,100%

# Repeated from above (set 1):
Variant,normalised enrichment score
I3E,0.164
N6S,0.168
L11H,0.136
